Experimental data pooled from the literature.
Parts stem from different laboratories: compare values within a part only.
UniProt P0C1S8, sequence (whole entry, looked up): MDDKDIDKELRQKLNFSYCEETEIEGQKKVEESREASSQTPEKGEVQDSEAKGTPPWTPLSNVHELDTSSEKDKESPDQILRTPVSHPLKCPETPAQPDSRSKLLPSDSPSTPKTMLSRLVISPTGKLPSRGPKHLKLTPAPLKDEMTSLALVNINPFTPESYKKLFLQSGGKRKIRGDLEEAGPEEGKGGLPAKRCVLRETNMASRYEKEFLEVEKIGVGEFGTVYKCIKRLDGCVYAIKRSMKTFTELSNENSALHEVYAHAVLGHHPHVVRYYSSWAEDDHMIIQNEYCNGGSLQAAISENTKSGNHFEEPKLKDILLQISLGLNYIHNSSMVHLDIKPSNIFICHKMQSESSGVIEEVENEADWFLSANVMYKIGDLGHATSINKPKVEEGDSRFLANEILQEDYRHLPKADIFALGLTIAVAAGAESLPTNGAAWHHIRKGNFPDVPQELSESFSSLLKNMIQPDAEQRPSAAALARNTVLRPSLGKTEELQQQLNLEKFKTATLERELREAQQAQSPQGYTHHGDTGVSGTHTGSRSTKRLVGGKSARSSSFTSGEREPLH
UniProt P27037, sequence (whole entry, looked up): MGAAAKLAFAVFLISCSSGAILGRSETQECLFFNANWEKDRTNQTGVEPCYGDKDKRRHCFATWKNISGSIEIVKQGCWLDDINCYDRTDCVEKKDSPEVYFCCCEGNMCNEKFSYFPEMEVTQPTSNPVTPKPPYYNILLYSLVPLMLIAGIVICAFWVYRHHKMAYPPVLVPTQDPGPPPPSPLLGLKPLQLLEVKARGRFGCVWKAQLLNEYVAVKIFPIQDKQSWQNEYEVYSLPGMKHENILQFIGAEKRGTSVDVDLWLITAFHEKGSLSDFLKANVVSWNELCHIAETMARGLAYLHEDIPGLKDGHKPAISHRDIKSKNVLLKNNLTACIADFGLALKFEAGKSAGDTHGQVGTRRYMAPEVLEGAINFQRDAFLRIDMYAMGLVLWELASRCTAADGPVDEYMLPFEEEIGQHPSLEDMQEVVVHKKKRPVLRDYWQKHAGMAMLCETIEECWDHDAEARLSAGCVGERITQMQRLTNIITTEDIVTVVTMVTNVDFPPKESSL
UniProt Q9HC98, sequence (whole entry, looked up): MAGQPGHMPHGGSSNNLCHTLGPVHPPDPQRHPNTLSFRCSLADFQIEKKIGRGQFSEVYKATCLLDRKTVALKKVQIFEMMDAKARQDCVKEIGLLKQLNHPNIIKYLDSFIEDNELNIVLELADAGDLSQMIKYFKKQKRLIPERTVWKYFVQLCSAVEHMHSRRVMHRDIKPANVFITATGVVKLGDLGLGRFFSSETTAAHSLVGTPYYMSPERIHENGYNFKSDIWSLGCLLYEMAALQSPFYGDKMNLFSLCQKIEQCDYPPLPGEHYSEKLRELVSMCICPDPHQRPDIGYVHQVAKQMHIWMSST
UniProt Q14164, sequence (whole entry, looked up): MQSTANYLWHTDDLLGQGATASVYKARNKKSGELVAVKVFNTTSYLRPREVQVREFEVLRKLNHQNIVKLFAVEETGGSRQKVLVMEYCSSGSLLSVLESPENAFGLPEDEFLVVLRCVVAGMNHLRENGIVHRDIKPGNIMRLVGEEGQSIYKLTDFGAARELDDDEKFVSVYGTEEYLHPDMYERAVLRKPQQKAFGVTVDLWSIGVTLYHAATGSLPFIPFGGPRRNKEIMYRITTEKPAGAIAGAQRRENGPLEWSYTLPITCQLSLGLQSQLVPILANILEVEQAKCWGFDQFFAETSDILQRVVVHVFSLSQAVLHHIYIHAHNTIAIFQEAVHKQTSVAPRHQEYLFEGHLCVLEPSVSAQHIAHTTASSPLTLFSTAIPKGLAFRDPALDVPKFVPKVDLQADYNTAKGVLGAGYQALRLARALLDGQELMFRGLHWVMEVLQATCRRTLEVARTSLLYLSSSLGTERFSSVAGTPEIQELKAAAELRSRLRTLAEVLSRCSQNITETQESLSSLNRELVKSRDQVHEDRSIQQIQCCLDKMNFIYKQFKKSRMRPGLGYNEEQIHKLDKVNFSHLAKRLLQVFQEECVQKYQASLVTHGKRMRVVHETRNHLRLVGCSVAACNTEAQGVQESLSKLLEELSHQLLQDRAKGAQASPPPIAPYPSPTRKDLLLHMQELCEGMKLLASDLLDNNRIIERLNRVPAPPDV
UniProt P11802, sequence (whole entry, looked up): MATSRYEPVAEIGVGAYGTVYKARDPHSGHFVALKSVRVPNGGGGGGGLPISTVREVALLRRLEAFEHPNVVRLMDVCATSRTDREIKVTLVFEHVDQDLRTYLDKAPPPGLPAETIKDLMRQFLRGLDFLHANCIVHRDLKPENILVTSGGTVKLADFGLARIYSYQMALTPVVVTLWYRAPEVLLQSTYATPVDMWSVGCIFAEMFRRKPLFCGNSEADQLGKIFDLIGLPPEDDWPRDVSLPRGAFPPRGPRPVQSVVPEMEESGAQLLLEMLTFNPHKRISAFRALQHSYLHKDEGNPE
UniProt P10721, sequence (whole entry, unmodified, looked up): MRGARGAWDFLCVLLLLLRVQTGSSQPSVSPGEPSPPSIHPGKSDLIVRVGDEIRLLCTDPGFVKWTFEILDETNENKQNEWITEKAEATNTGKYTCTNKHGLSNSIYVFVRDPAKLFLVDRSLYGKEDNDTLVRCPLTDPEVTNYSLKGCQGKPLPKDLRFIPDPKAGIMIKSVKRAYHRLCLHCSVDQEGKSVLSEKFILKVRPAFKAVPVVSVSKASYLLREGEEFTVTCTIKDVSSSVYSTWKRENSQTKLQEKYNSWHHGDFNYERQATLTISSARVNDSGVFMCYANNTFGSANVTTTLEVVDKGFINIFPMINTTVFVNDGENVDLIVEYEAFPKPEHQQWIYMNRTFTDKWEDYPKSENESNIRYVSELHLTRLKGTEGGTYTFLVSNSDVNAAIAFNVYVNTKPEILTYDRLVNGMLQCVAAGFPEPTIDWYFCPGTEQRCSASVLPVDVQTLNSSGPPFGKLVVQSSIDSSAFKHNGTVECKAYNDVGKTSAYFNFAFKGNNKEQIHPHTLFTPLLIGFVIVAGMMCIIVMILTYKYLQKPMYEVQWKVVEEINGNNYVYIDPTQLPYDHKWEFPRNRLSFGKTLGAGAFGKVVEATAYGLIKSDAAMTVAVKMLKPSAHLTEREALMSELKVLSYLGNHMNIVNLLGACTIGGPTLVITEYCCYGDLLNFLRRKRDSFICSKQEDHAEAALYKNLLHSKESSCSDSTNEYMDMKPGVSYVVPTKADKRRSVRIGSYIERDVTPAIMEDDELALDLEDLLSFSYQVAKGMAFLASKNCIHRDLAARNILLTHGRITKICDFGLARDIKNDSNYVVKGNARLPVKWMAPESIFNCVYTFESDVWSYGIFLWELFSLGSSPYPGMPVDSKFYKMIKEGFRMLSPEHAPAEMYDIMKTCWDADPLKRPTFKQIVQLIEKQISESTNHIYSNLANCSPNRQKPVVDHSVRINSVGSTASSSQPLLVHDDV
UniProt Q16832, sequence (whole entry, looked up): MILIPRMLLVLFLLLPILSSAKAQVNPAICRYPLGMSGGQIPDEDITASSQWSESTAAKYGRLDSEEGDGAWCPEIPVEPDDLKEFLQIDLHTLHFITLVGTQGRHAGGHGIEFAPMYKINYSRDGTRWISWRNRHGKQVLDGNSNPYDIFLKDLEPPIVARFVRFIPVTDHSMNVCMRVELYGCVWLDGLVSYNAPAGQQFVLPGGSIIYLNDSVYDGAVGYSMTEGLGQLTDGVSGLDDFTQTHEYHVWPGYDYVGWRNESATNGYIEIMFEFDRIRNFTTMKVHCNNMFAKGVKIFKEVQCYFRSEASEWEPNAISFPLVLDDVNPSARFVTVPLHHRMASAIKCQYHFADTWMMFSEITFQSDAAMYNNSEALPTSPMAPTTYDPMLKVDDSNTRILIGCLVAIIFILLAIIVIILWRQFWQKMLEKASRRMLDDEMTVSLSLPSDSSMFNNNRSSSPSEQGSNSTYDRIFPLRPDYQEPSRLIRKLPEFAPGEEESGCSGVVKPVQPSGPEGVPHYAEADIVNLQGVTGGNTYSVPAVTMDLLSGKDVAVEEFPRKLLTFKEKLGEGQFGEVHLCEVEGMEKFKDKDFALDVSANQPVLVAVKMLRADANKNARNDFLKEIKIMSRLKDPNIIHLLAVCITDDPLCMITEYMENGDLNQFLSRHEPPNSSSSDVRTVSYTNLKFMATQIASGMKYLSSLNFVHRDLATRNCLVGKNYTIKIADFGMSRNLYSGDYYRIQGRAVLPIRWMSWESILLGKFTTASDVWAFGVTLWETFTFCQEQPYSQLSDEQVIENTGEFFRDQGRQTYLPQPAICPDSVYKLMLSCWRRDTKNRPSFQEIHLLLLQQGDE

Set 1
SMILES: C[C@@]1(Cc2ccc(C#N)cc2)C(=O)N(c2cc(Cl)cc(Cl)c2)c2ncc(C(=O)NC3(c4nc(C5CCC5)no4)CC3)n21
Read-out: cell-free assay
Technique: competition with immobilised ligand
Concentration: 1 µM
target	remaining binding [%]
CDK14 (Homo sapiens, UniProt O94921)	100
IKBKE (Homo sapiens, UniProt Q14164)	80
KIT (Homo sapiens, UniProt P10721, D816H)	100
Cyclin-dependent kinase 4, with cyclin D3 (CDK4, Homo sapiens, UniProt P11802)	93
DDR2 (Homo sapiens, UniProt Q16832)	100
ACVR2A (Homo sapiens, UniProt P27037)	92
LYN (Homo sapiens, UniProt P07948)	95
KDR (Homo sapiens, UniProt P35968)	100
FLT3 (Homo sapiens, UniProt P36888)	98
DCLK2 (Homo sapiens, UniProt Q8N568)	100
MKNK1 (Homo sapiens, UniProt Q9BUB5)	100
PRKG2 (Homo sapiens, UniProt Q13237)	100
WEE2 (Homo sapiens, UniProt P0C1S8)	100
NEK6 (Homo sapiens, UniProt Q9HC98)	100

Set 2
Host: mouse
Sample: microsomes or S9
Concentration: 2 µM
Time: 0.5 h
SMILES	remaining compound [%]
CN(C)S(=O)(=O)c1cc(C(=O)Nc2ccc(Br)cc2)c(Cl)cc1Cl	4.93
CN(C)c1cccc2c(S(=O)(=O)NC(CC(=O)O)C(=O)O)cccc12 (stereo not shown)	82.1
Fc1ccc(Cn2nnc3c2ncn2cnnc32)cc1	41.5
O=c1cc(-c2ccccc2)oc2ccccc12	17.3
CCc1cc2c3c([nH]c2cc1S(=O)(=O)N1CCN(C)CC1)CC(C)(C)CC3=O	75.5
c1ccc(-c2cc(-c3cc4ccccc4o3)nc3nnnn23)cc1	21.1
CCOC(=O)Cc1c(C)[nH]c2c(-c3ccccc3)cnn2c1=O	78.1
Cc1n[nH]c(C)c1CCC(=O)NCc1c(F)cccc1F	61.5
CCOC(=O)c1c(C)c(C(=O)CN(C)S(=O)(=O)c2ccccc2)c(C)n1CC	3.42
Cc1ccc2nc(Nc3nc(C)cc(C(F)(F)F)n3)nc(C)c2c1	2.29
CN(C)CCOc1cc(N2C(=O)c3ccccc3S2(=O)=O)ccc1Cl	24.9
CCC(=O)N1CCN(c2cc(-n3cnc(C)c3C)nc(C)n2)CC1	88.9
COc1ccccc1OCC(=O)N(Cc1ccc(-c2ccc(F)cc2)o1)C1CCS(=O)(=O)C1 (stereo not shown)	5.15
Cc1noc(C)c1CC(=O)NCC12CCC=C1NC(=O)CC2 (stereo not shown)	90.3
CCc1cc2c(cc3c(=O)n(CC(=O)NCC(C)c4ccccc4)nc(CC)n32)s1 (stereo not shown)	0.0722
CNC(=O)c1nnn2c1[nH]c(=O)c1c(C)c(C)sc12	46.3
CC(=O)N1N=C(c2c(-c3ccccc3)c3ccccc3[nH]c2=O)CC1c1ccnc2ccccc12 (stereo not shown)	12.1

Set 3
Target: Calcium/calmodulin-dependent protein kinase type II subunit alpha (CAMK2A, Homo sapiens, UniProt Q9UQM7)
UniProt Q9UQM7, sequence (whole entry, looked up): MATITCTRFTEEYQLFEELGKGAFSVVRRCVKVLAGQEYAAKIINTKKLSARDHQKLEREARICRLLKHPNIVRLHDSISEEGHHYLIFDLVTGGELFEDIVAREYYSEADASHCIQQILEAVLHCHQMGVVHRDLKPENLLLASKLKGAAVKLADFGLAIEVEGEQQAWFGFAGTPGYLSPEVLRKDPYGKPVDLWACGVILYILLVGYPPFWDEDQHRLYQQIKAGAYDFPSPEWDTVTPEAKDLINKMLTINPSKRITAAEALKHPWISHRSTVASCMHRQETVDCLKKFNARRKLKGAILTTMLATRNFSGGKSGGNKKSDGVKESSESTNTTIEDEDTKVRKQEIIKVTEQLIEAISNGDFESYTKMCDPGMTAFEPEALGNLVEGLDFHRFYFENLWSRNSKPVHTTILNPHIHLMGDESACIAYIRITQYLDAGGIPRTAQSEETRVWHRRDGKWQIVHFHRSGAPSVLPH
Read-out: enzyme activity
Mode: inhibitor
Concentration: 10 µM
SMILES	inhibition [%]
CC(C)(C)NC[C@@H](O)COc1ccccc1C1CCCC1	-5
CCC(=O)NS(=O)(=O)c1ccc(NC(=O)Cc2ccc(Br)c(Oc3cc(Cl)cc(C#N)c3)c2F)c(Cl)c1	3
O=C(OCc1ccccc1)c1ccccc1	-3
NC(=O)NCCCC(N)C(=O)O (stereo not shown)	24
OC[C@H]1NCC[C@@H](O)[C@@H]1O	44
NCCCC[C@H](NC(=O)[C@@H]1CCCN1C(=O)[C@@H]1CSSC[C@H](NC(=O)CNC(=O)CNC(=O)CN)C(=O)N[C@@H](Cc2ccc(O)cc2)C(=O)N[C@@H](Cc2ccccc2)C(=O)N[C@@H](CCC(N)=O)C(=O)N[C@@H](CC(N)=O)C(=O)N1)C(=O)NCC(N)=O	-11
COc1c2c(cc3oc(CO)cc(=O)c13)O[C@H](C(C)(C)O)C2	-4
C=C1C[C@H]2[C@@H]3CCC4=CC(=O)CC[C@@H]4[C@H]3CC[C@]2(C)[C@@]1(OC(C)=O)C(C)=O	-3
O=C(O)C[C@H](O)C(=O)O	-3
O=C(O)/C=C/CCCCCCCO	0

Set 4
Target: cAMP-dependent protein kinase catalytic subunit PRKX (PRKX, Homo sapiens, UniProt P51817)
Read-out: enzyme activity
Mode: inhibitor
Concentration: 0.5 µM
Relative to: control
Target sequence (P51817 1-358): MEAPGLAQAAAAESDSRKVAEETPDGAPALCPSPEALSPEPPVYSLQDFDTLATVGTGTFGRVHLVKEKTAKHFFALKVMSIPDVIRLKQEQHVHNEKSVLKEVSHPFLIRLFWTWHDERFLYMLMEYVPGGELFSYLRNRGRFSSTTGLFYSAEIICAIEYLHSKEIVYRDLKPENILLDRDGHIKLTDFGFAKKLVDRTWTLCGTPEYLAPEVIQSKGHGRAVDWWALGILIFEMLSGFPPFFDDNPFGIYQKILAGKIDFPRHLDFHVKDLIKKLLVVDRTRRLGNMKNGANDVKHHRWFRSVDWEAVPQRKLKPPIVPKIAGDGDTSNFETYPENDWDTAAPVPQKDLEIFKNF
SMILES	remaining activity [%]
O=C(c1ccccc1)c1ccc(N2CCOCC2)cc1O	109
c1cc(-c2cnn3cc(-c4ccc(OCCN5CCCCC5)cc4)cnc23)ccn1	58.2
CC(C)N(CCC(=O)c1ccc2ccccc2c1)Cc1ccccc1	99.6
NC(=O)c1ccc(-c2nc(-c3ccc4c(c3)OCCO4)c(-c3ccccn3)[nH]2)cc1	99.5
CCN(CC)CCCCN1c2ccccc2Oc2ccc(Cl)cc21	103
CC(C)n1cnc2c(Nc3cccc(Cl)c3)nc(NCCO)nc21	96.4
Nc1nc(Nc2ccc(S(N)(=O)=O)cc2)nn1C(=S)Nc1c(F)cccc1F	76.3
FC(F)(F)c1ccc(/C=C/c2nc(COc3ccc(CCCCn4ccnn4)cc3)co2)cc1	95.3
C[C@@H](N)[C@H]1CC[C@H](C(=O)Nc2ccncc2)CC1	63.3
Clc1ccc(Nc2nnc(Cc3ccncc3)c3ccccc23)cc1	152
CNc1cc2c(Nc3cccc(Br)c3)ncnc2cn1	97.1
COc1cc2c(Nc3ccc(Br)cc3F)ncnc2cc1OCC1CCN(C)CC1	105
O=C(O)/C=C/c1cc(Br)c(Br)c(Br)c1Br	96
O=c1c(-c2ccc(F)cc2)c(-c2ccncc2)[nH]n1-c1ccc(Cl)cc1	97
COc1cc2c(N3CCN(C(=O)Nc4ccc(OC(C)C)cc4)CC3)ncnc2cc1OCCCN1CCCCC1	108
N#CC(c1ccnc(NCCc2cccnc2)n1)c1nc2ccccc2s1 (stereo not shown)	96.4
O=Nc1c(-c2c(O)[nH]c3ccccc23)[nH]c2ccccc12	88.8
NC(=O)c1cccc(-c2cc(Nc3ccc(OC(F)(F)F)cc3)ncn2)c1	105
O=C1c2ccccc2-c2nc3nnnn3nc21	94.3
N#C/C(=C(/N)SC1C=CC=CC1)c1cccc(C(O)c2ccncc2)c1 (stereo not shown)	102
O=C1NC(=O)/C(=C/c2ccc3c(c2)OC(F)(F)O3)S1	101
CCCCc1c(-c2ccc(O)cc2)[nH]c2nccnc12	110
CC(C)(C)c1nc2c3cc[nH]c(=O)c3c3cc(F)ccc3c2[nH]1	79.2

Repeated from above (set 3):
SMILES	inhibition [%]
OC[C@H]1NCC[C@@H](O)[C@@H]1O	44
NCCCC[C@H](NC(=O)[C@@H]1CCCN1C(=O)[C@@H]1CSSC[C@H](NC(=O)CNC(=O)CNC(=O)CN)C(=O)N[C@@H](Cc2ccc(O)cc2)C(=O)N[C@@H](Cc2ccccc2)C(=O)N[C@@H](CCC(N)=O)C(=O)N[C@@H](CC(N)=O)C(=O)N1)C(=O)NCC(N)=O	-11
COc1c2c(cc3oc(CO)cc(=O)c13)O[C@H](C(C)(C)O)C2	-4
C=C1C[C@H]2[C@@H]3CCC4=CC(=O)CC[C@@H]4[C@H]3CC[C@]2(C)[C@@]1(OC(C)=O)C(C)=O	-3
O=C(O)C[C@H](O)C(=O)O	-3
